Results gathered from unrelated publications.
Each numbered part is a random draw from the data of one study; scales do not carry over between parts. Values joined by “and” are separate records of one study, mostly repeats; a detail may differ.
Sequence of UniProt Q8NFD2 (whole entry, looked up): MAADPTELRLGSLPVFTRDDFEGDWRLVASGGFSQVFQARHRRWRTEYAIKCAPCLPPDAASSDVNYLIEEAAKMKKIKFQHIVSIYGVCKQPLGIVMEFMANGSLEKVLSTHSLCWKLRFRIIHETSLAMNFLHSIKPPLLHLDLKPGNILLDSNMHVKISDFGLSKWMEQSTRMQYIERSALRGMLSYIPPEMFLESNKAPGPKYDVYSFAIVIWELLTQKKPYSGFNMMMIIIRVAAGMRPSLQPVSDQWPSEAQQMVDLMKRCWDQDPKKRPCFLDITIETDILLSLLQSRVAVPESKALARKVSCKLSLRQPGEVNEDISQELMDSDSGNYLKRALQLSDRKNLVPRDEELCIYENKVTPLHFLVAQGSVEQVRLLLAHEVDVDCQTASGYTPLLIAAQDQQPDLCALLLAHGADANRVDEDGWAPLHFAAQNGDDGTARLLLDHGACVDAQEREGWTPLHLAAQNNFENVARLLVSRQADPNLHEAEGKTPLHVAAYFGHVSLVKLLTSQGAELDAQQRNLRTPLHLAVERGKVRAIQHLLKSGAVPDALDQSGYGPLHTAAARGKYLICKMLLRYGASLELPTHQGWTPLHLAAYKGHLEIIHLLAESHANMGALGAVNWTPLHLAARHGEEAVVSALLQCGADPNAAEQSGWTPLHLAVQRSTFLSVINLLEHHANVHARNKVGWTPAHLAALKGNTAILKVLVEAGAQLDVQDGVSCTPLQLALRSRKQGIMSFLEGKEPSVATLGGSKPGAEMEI
Sequence of UniProt P15735 (whole entry, looked up): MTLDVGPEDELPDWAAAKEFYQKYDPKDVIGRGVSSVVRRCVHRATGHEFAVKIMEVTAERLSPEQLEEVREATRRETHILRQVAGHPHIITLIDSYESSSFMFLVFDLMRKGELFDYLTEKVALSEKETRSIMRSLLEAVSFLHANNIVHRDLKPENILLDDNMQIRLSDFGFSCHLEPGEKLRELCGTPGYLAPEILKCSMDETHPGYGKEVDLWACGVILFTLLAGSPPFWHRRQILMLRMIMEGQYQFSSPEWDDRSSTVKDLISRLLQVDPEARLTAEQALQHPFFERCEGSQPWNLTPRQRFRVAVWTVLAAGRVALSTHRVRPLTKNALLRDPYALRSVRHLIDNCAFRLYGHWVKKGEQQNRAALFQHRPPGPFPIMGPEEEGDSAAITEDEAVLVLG
Sequence of UniProt P00519 (whole entry, unmodified, looked up): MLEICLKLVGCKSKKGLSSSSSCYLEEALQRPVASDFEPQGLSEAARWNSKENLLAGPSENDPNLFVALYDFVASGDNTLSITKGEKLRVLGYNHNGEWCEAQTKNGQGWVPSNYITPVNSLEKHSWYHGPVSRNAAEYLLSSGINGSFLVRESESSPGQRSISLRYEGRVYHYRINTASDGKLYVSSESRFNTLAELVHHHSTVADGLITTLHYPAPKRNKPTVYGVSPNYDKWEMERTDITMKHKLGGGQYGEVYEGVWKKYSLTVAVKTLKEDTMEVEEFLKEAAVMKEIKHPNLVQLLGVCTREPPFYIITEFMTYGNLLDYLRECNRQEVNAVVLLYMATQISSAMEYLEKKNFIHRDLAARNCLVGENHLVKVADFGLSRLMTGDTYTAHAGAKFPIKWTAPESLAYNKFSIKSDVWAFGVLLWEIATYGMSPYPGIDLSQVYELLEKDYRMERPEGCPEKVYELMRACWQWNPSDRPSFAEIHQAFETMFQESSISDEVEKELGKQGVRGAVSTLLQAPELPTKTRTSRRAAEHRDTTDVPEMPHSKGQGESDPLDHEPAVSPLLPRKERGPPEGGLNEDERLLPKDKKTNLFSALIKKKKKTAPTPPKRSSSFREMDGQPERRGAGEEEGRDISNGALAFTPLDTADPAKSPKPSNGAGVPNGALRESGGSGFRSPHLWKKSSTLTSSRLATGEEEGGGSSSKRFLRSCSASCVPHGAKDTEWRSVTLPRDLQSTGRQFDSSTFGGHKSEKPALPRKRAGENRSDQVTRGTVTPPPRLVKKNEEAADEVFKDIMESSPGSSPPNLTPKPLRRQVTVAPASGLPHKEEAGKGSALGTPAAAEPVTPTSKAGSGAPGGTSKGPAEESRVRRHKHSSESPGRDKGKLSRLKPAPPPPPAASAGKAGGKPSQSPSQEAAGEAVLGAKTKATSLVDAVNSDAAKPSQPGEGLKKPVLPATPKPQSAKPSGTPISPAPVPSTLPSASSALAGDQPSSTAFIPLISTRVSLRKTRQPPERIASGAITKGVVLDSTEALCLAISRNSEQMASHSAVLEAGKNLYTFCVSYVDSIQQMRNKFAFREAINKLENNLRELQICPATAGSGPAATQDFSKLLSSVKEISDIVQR
Sequence of UniProt Q15569 (whole entry, looked up): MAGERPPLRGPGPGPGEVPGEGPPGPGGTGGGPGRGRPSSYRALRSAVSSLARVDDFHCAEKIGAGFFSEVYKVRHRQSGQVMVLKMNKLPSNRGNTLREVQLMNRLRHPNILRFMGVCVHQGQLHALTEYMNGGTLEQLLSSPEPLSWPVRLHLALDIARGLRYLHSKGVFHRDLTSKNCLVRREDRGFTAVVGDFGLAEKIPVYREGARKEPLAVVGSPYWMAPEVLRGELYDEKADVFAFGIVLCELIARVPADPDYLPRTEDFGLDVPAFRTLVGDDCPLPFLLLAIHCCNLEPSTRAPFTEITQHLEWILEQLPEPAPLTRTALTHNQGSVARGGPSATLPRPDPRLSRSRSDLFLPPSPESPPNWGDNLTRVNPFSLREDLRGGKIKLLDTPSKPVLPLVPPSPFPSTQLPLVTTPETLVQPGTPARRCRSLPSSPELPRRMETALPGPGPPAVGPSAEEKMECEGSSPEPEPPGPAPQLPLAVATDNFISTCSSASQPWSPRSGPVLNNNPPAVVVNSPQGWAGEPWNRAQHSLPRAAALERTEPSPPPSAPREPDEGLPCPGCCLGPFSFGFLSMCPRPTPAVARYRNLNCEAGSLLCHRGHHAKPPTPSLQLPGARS
Sequence of UniProt Q99640 (whole entry, looked up): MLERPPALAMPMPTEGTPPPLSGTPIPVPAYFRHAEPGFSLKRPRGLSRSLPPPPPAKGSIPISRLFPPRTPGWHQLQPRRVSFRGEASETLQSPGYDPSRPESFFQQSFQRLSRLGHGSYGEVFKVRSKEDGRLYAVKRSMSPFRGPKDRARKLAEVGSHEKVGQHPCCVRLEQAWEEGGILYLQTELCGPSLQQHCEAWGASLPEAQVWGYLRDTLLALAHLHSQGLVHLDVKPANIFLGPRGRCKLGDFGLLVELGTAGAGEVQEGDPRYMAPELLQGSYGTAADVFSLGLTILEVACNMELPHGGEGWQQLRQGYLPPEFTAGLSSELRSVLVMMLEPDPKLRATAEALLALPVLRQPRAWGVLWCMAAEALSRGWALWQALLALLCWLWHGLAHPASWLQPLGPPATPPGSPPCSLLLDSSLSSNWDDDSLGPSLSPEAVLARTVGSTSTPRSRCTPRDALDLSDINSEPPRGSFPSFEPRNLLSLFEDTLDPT

Series 1
Compound: C=CC(=O)N1CCN(c2nc(OC[C@@H]3CCCN3C)nc3c2CCN(c2cccc4cccc(C)c24)C3)C[C@@H]1CC#N
Effect on: binding
Action: competitor
Method: NanoBRET
Cell line: HEK293
Quantity: normalized BRET
KRAS G12D: GTPase KRas (KRAS, Homo sapiens, UniProt P01116, G12D)
KRAS Q61H: GTPase KRas (KRAS, Homo sapiens, UniProt P01116, Q61H)
HRAS: GTPase HRas (HRAS, Homo sapiens, UniProt P01112)
KRAS G13D: GTPase KRas (KRAS, Homo sapiens, UniProt P01116, G13D)
KRAS G12D; 153 pM: 106%
GTPase KRas (KRAS, Homo sapiens, UniProt P01116, Q61L); 6.67 µM: 31.3% and 32.9% and 34.1%
KRAS Q61H; 2.22 µM: 40.6% and 28.2% and 31.6%
HRAS; 156 nM: 118%
KRAS G12D; 741 nM: 77.6% and 74.1%
KRAS G13D; 1.02 nM: 92.5% and 98.8% and 84.8%
KRAS Q61H; 3.05 nM: 98.9% and 89.2% and 94.9%
KRAS Q61H; 1.02 nM: 93.1% and 92.2% and 96%
HRAS; 153 pM: 115%
KRAS G13D; 3.05 nM: 85% and 95.3% and 87.7%

Series 2
Compound: Cc1ncsc1-c1ccc(C(CO)NC(=O)C2CC(O)CN2C(=O)C(C(C)C)n2cc(-c3ccc(COc4c(-c5c(C)c(F)cc6[nH]ncc56)c(C5CC5)cc5c(N6CC7CC6CN7)nc(OC6CCOCC6)nc45)cc3)nn2)cc1 (stereo not shown)
Quantity: body weight
mouse, HPAC xenograft; 30 mg/kg once weekly, day 14: 23.5 g
mouse, A-375 xenograft; sc, 30 mg/kg once daily, day 1: 18 g and 18.7 g and 19.2 g and 18.4 g and 17.5 g
mouse, GP5d xenograft; 30 mg/kg once weekly, day 4: 29 g and 22.9 g and 23.6 g and 25.4 g
mouse, A-375 xenograft; sc, 30 mg/kg once daily, day 8: 17.9 g and 19.9 g and 19 g and 18.9 g
mouse, PK-59 xenograft; subcutaneous, 30 mg/kg once daily, day 6: 18.3 g and 18.9 g and 19.1 g and 20.5 g
mouse, HT-29 xenograft; sc, 30 mg/kg once daily, day 3: 18.4 g and 19.1 g and 18.6 g and 20.6 g and 21.2 g
mouse, PK-59 xenograft; 0.3 mg/kg, day 0: 23.6 g and 22.9 g
mouse, PK-59 xenograft; 0.3 mg/kg, day 4: 24.1 g and 24.6 g and 25.1 g
mouse, lung LXFA sample B PDX; 10 mg/kg twice weekly, day 11: 26.6 g
mouse, PK-59 xenograft; 10 mg/kg, day 17: 24.5 g and 24.1 g and 25.6 g
mouse, PK-59 xenograft; 3 mg/kg, day 10: 25.1 g and 24.4 g and 25.4 g and 24.5 g

Series 3
SMILES: CC[C@@]1(c2ccccc2)C2=C(CC(C)(C)CC2=O)Nc2n[nH]cc21
Tested at: 1 µM
Quantity: remaining binding
FGFR4 (Homo sapiens, UniProt P22455); binding, competition with immobilised ligand: 99%
AXL (Homo sapiens, UniProt P30530); binding, competition with immobilised ligand: 100%
Non-receptor tyrosine-protein kinase TYK2, JH1 domain (TYK2, Homo sapiens, UniProt P29597); kinase binding, KINOMEscan; baseline: DMSO control: 100%
PHKG2 (Homo sapiens, UniProt P15735); binding, competition with immobilised ligand: 98%
Tyrosine-protein kinase ABL1, phosphorylated (ABL1, Homo sapiens, UniProt P00519, F317L); kinase binding, KINOMEscan; baseline: DMSO control: 100%
Insulin receptor (INSR, Homo sapiens, UniProt P06213); kinase binding, KINOMEscan; baseline: DMSO control: 100%
ZAP70 (Homo sapiens, UniProt P43403); kinase binding, KINOMEscan; baseline: DMSO control: 100%
TESK1 (Homo sapiens, UniProt Q15569); binding, competition with immobilised ligand: 100%
MARK1 (Homo sapiens, UniProt Q9P0L2); binding, competition with immobilised ligand: 93%
TAOK1 (Homo sapiens, UniProt Q7L7X3); binding, competition with immobilised ligand: 100%
Ribosomal protein S6 kinase alpha-3, C-terminal kinase domain (RPS6KA3, Homo sapiens, UniProt P51812); binding, competition with immobilised ligand: 55%
FRK (Homo sapiens, UniProt P42685); kinase binding, KINOMEscan; baseline: DMSO control: 100%
ALK (Homo sapiens, UniProt Q9UM73, C1156Y); binding, competition with immobilised ligand: 88%
WEE1 (Homo sapiens, UniProt P30291); binding, competition with immobilised ligand: 100%
FER (Homo sapiens, UniProt P16591); binding, competition with immobilised ligand: 100%
ANKK1 (Homo sapiens, UniProt Q8NFD2); binding, competition with immobilised ligand: 100%
PKMYT1 (Homo sapiens, UniProt Q99640); kinase binding, KINOMEscan; baseline: DMSO control: 85%

Series 4
SMILES: C[C@@H]1CN(c2ccc(-c3cc(C(=O)NCCOCCOCCOCCOCCNC(=O)/C=C/c4[nH]cc(C(=O)N[C@@H](CC(N)=O)c5ccc(F)c(Cl)c5)c4-c4ccc(Cl)cc4F)ccc3F)cc2NC(=O)c2c[nH]c(=O)cc2C(F)(F)F)C[C@H](C)N1C
Effect on: thermal unfolding
Method: differential scanning fluorimetry
Tested at: 5.5 µM
Direction: higher = more unfolded
Quantity: SYPRO Orange fluorescence
DCAF1: DDB1- and CUL4-associated factor 1 (DCAF1, Homo sapiens, UniProt Q9Y4B6)
Sequence of UniProt Q9Y4B6 (whole entry, looked up): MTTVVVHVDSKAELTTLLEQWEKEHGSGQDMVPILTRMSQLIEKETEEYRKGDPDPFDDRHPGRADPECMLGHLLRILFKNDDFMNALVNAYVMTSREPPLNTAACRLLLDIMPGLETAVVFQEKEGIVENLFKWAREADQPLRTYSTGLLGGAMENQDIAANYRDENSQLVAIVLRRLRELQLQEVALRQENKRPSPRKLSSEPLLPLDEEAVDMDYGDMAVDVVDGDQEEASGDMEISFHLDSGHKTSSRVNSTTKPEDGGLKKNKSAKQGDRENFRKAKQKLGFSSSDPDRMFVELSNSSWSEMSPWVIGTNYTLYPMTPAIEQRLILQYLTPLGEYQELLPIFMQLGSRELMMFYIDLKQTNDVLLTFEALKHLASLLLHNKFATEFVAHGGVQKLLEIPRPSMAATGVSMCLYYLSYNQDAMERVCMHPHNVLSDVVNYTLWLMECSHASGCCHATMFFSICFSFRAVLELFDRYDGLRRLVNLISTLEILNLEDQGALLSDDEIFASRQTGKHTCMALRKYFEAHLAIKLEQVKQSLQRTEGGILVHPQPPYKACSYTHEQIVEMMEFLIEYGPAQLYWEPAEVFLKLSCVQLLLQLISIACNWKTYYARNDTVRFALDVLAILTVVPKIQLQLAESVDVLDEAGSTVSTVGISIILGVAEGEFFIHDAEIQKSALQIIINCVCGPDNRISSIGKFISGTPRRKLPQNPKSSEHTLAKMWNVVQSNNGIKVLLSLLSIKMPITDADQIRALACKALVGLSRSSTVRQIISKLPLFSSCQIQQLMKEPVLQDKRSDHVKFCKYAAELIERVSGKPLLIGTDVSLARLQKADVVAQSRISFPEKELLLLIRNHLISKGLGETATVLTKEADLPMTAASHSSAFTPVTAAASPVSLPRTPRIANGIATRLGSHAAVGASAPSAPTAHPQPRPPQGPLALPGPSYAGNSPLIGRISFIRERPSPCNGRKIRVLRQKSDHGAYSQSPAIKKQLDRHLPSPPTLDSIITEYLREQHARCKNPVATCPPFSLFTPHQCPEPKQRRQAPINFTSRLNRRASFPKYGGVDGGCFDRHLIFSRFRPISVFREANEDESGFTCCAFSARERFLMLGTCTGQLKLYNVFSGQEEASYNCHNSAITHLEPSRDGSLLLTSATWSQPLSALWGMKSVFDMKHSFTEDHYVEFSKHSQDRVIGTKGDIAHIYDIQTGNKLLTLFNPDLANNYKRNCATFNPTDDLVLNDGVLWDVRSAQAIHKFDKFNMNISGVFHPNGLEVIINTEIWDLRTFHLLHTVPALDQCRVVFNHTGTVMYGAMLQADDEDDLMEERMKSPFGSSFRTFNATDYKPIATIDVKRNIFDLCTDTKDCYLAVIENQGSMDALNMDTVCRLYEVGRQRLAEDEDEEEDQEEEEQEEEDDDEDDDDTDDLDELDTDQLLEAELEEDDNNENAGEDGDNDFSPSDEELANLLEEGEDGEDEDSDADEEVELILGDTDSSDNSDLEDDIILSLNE
WDR5: WD repeat-containing protein 5 (WDR5, Homo sapiens, UniProt P61964)
DCAF1; 30 °C: 9500 a.u.
DCAF1; 86.21 °C: 38800 a.u.
DCAF1; 92.01 °C: 32800 a.u.
WDR5; 58.21 °C: 16300 a.u.
DCAF1; 87.81 °C: 37200 a.u.
DCAF1; 46.6 °C: 13700 a.u.
DCAF1; 90.61 °C: 34400 a.u.
WDR5; 29.4 °C: 12700 a.u.
WDR5; 41.8 °C: 14600 a.u.
WDR5; 58.81 °C: 16100 a.u.
WDR5; 93.81 °C: 46600 a.u.

Repeated from above (series 3):
FER (Homo sapiens, UniProt P16591); binding, competition with immobilised ligand: 100%
ANKK1 (Homo sapiens, UniProt Q8NFD2); binding, competition with immobilised ligand: 100%
ZAP70 (Homo sapiens, UniProt P43403); kinase binding, KINOMEscan; baseline: DMSO control: 100%
PHKG2 (Homo sapiens, UniProt P15735); binding, competition with immobilised ligand: 98%
Non-receptor tyrosine-protein kinase TYK2, JH1 domain (TYK2, Homo sapiens, UniProt P29597); kinase binding, KINOMEscan; baseline: DMSO control: 100%
FRK (Homo sapiens, UniProt P42685); kinase binding, KINOMEscan; baseline: DMSO control: 100%
Insulin receptor (INSR, Homo sapiens, UniProt P06213); kinase binding, KINOMEscan; baseline: DMSO control: 100%
